Measured values gathered from unrelated publications.
Compare with care: the assays were run in different laboratories. Values joined by “and” are separate records of one study, mostly repeats; a detail may differ. ± gives the spread as reported.

Compound	assay	test system	setting	scale	quantity	value
COC1OC(C)C(OS(=O)(=O)O)C(OC2OC(C)C(OS(=O)(=O)O)C(OS(=O)(=O)O)C2OS(=O)(=O)O)C1OS(=O)(=O)O (stereo not drawn)		human plasma	128 µg/mL		activated partial thromboplastin time	43.3 ± 0.4 s
O=C(CCC(F)(F)F)Nc1ccc(C2CCCCC2)cc1	liver microsome stability	dog liver microsomes	1 µM		hepatic clearance	1.68 L/h/kg
COc1cnc2cccc(N3CCc4c(cc(Cn5ccnc5)cc4-c4cn(C)nc4C(F)(F)F)C3=O)c2c1		BALB/c nude mice, MV4-11 xenograft	intraperitoneal, 50 mg/kg, day 21		tumour volume	205 mm3 and 131 mm3 and 275 mm3 and 116 mm3 and 150 mm3
COC1OC(C)C(OC2OC(C)C(O)C(OC3OC(C)C(OC4OC(C)C(O)C(OC5OC(C)C(OC6OC(C)C(O)C(OC7OC(C)C(OC8OC(C)C(O)C(OS(=O)(=O)O)C8OS(=O)(=O)O)C(OS(=O)(=O)O)C7OS(=O)(=O)O)C6OS(=O)(=O)O)C(OS(=O)(=O)O)C5OS(=O)(=O)O)C4OS(=O)(=O)O)C(OS(=O)(=O)O)C3OS(=O)(=O)O)C2OS(=O)(=O)O)C(OS(=O)(=O)O)C1OS(=O)(=O)O (stereo not drawn)		human plasma	16 µg/mL		activated partial thromboplastin time	67 s and 68.4 s and 69.4 s
O=C1CCC(N2Cc3c(ccc(C(=O)O)c3F)C2=O)C(=O)N1 (stereo not drawn)	deuterium-hydrogen exchange	aqueous phosphate buffer	pH 7.4, 37 °C		exchange rate constant	-0.037 h⁻¹
CCCCCCCCCCCCCCCC(=O)NCCCC[C@H](NC(=O)[C@H](CCC(=O)O)NC(=O)[C@H](Cc1ccc(O)cc1)NC(=O)[C@H](CCC(=O)O)NC(=O)COCC(=O)NCCCOCCOCCOCCCNC(=O)[C@H](Cc1ccccc1)NC(=O)[C@H](CC(N)=O)NC(=O)[C@H](Cc1c[nH]cn1)NC(=O)[C@@H](NC(=O)[C@H](CC(=O)O)NC(=O)[C@H](CCC(N)=O)NC(=O)[C@H](CC(C)C)NC(=O)[C@H](CCCCN)NC(=O)[C@H](CCCCN)NC(=O)[C@H](CCCNC(=N)N)NC(=O)[C@H](CC(C)C)NC(=O)[C@H](Cc1c[nH]c2ccccc12)NC(=O)[C@H](CCC(=O)O)NC(=O)[C@@H](NC(=O)[C@H](CCCNC(=N)N)NC(=O)[C@H](CCC(=O)O)NC(=O)[C@H](CCSC)NC(=O)[C@H](CO)NC(=O)[C@H](CC(N)=O)NC(=O)[C@H](CC(C)C)NC(=O)[C@H](Cc1c[nH]cn1)NC(=O)[C@H](CCCCN)NC(=O)CNC(=O)[C@H](CC(C)C)NC(=O)[C@H](CC(N)=O)NC(=O)[C@H](Cc1c[nH]cn1)NC(=O)[C@H](CCSC)NC(=O)[C@H](CC(C)C)NC(=O)[C@H](CCC(N)=O)NC(=O)[C@@H](NC(=O)[C@H](CCC(=O)O)NC(=O)[C@H](CO)NC(=O)[C@@H](NC(=O)[C@@H](N)CO)C(C)C)[C@@H](C)CC)C(C)C)C(C)C)C(=O)N[C@@H](CCC(=O)O)C(=O)N[C@@H](Cc1ccc(O)cc1)C(=O)N[C@@H](CCC(=O)O)C(N)=O	micro-CT	humanized PTH1R mouse, femur	dose not given		bone mineral density	422 mgHA/cm3 and 451 mgHA/cm3
O=C(NC1CCOCC1)c1ccc([C@H]2[C@@H](F)[C@@H](F)C[C@@H](F)[C@H]2F)cc1	liver microsome stability	rat liver microsomes	1 µM		hepatic clearance	0.366 L/h/kg
COC1CN([C@H]2CC[C@H]([C@@]3(C)Oc4c(Cl)cc(C(=O)NCc5c(SC)cc(C)[nH]c5=O)c(C)c4O3)CC2)C1	RNA-seq, measured: MUSTN1 mouse homolog	mouse, HT-1376 xenograft, whole blood	dose not given	reference: vehicle	log2 fold change	0.539
COc1cccc(O)c1C(=O)/C=C/c1ccc2cc(N3CCCC3)ccc2c1	immunohistochemistry	C57BL/6J mice, cisplatin-induced kidney injury, kidney	dose not given, with: cisplatin		γH2AX level	decreased
COC1OC(C)C(OS(=O)(=O)O)C(OC2OC(C)C(OS(=O)(=O)O)C(OC3OC(C)C(OS(=O)(=O)O)C(OC4OC(C)C(OS(=O)(=O)O)C(OC5OC(C)C(OS(=O)(=O)O)C(OC6OC(C)C(OS(=O)(=O)O)C(OC7OC(C)C(OS(=O)(=O)O)C(OS(=O)(=O)O)C7OS(=O)(=O)O)C6OS(=O)(=O)O)C5OS(=O)(=O)O)C4OS(=O)(=O)O)C3OS(=O)(=O)O)C2OS(=O)(=O)O)C1OS(=O)(=O)O (stereo not drawn)		human plasma	8 µg/mL		activated partial thromboplastin time	35 s and 34.3 s and 35.2 s
COc1ccc(NC(=O)c2ccc3[nH]c(-c4ccc(N(C)C)cc4)nc3c2)cn1		CT26, BALB/c mice, subcutaneous syngeneic graft	dose not given, day 14		tumour volume	153 mm3 and 673 mm3 and 970 mm3 and 877 mm3 and 515 mm3
COC(=O)C1CN1S(=O)(=O)c1ccc2cc(C)ccc2c1 (stereo not drawn)		mouse, Lewis lung carcinoma	ip, 100 mg/kg, 240 h		tumour volume	330 mm3

Repeated from above:
Compound	assay	test system	setting	scale	quantity	value
O=C1CCC(N2Cc3c(ccc(C(=O)O)c3F)C2=O)C(=O)N1 (stereo not drawn)	deuterium-hydrogen exchange	aqueous phosphate buffer	pH 7.4, 37 °C		exchange rate constant	-0.037 h⁻¹
COC1OC(C)C(OS(=O)(=O)O)C(OC2OC(C)C(OS(=O)(=O)O)C(OS(=O)(=O)O)C2OS(=O)(=O)O)C1OS(=O)(=O)O (stereo not drawn)		human plasma	128 µg/mL		activated partial thromboplastin time	43.3 ± 0.4 s
